Results from different studies.
Values joined by “and” are separate records of one study, mostly repeats; a detail may differ.

SMILES = Cc1cc(C)nc(NC(=S)N2CCN(Cc3ccc(C(F)(F)F)cc3)CC2)c1; test system = plasma; conditions = intraperitoneal, 30 mg/kg; endpoint = Cmax; value = 7980 ng/mL
SMILES = OCCCN1CC[C@@H]2C[C@H]1c1cc(-c3ccc(C(F)(F)F)cc3)ccc12; test system = brain; conditions = ip, concentration not given; endpoint = Cmax; value = 10900 ng/mL
SMILES = COCC1CN(C2CCN(c3cc(OC)c(Nc4ncc(Br)c(Nc5ccc6c(c5P(C)(C)=O)OCCO6)n4)cc3C)CC2)C1; test system = EGFR-mutant NSCLC patients, plasma; conditions = oral, 60 mg single dose, geometric mean; endpoint = Cmax; value = 478 ng/mL
SMILES = COc1ccc(CCN(C)CCCC(C#N)(c2ccc(OC)c(OC)c2)C(C)C)cc1OC (centres unmarked); target or system = Trypanosoma cruzi; test = reporter mRNA translation, inhibitor, refers to: Renilla luciferase mRNA; test system = cell-free extract; conditions = concentration not given, test 2; how to read = reference: positive over negative control; endpoint = translation activity; value = 104%
SMILES = CNCc1ccc(-c2cc(=O)c3ccc4[nH]c(C(F)(F)F)nc4c3o2)cc1; test system = ICR mice, plasma; conditions = oral, 5 mg/kg; endpoint = Cmax; value = 90.8 ng/mL
SMILES = CCCCCCCOc1ccc(CC[C@](N)(CO)COP(=O)(O)O)cc1C(F)(F)F; test system = healthy human males, plasma; conditions = 0.5 mg, day 21; endpoint = Cmax; value = 7.28 ng/mL
SMILES = CC(=O)c1cccc(CN2CCCC(CCC(=O)NCc3ccccc3F)C2)c1 (centres unmarked); target or system = Trypanosoma cruzi; test = reporter mRNA translation, inhibitor, refers to: Renilla luciferase mRNA; test system = cell-free extract; conditions = concentration not given, test 2; how to read = reference: positive over negative control; endpoint = translation activity; value = 105% and 102%
SMILES = CC(C)C[C@H](NC(=O)[C@H](CCCN)NC(=O)CNC(=O)[C@@H](NC(=O)[C@H](C)NC(=O)[C@@H]1CSCSC[C@H](NC(=O)CC[C@H](N)C(=O)O)C(=O)N[C@@H](CC(N)=O)C(=O)N[C@@H]([C@@H](C)O)C(=O)N[C@@H](C)C(=O)N[C@@H]([C@@H](C)O)C(=O)N1)[C@@H](C)O)C(=O)N[C@@H](C)C(=O)N[C@@H](CCC(=O)O)C(=O)N[C@@](C)(Cc1ccccc1)C(=O)N[C@@H](CC(C)C)C(=O)N[C@H](C(=O)N[C@@H](CCCNC(=N)N)C(=O)N[C@@H](CO)C(=O)N[C@@H](CO)C(=O)N[C@@H](CC(N)=O)C(=O)N(C)[C@@H](CC(N)=O)C(=O)N[C@@H](Cc1ccccc1)C(=O)NCC(=O)N1CCC[C@H]1C(=O)N[C@@H](CCCCNC(=O)CC[C@H](NC(=O)CC[C@H](NC(=O)CCCCCCCCCCCCCCCCCCC(=O)O)C(=O)O)C(=O)O)C(=O)N[C@@H](CC(C)C)C(=O)N1CCC[C@H]1C(=O)N1CCC[C@H]1C(=O)N[C@H](C(=O)N[C@@H](CCC(=O)O)C(=O)N[C@H](C(=O)NCC(=O)N[C@@H](CO)C(=O)N[C@@H](CC(N)=O)C(=O)N[C@H](C(=O)N[C@@H](Cc1ccc(O)cc1)C(N)=O)[C@@H](C)O)C(C)C)[C@@H](C)O)C(C)C; test system = healthy human, plasma; conditions = subcutaneous, 0.12 mg single dose, geometric LS mean; endpoint = Cmax; value = 11.9 ng/mL
SMILES = C=C[C@]1(C)C[C@@H](OC(=O)CSc2ccc(NC(=O)c3ccco3)cc2)[C@]2(C)[C@H](C)CC[C@]3(CCC(=O)[C@H]32)[C@@H](C)[C@@H]1O; test system = M. gallisepticum-infected chickens, plasma; conditions = intramuscular, 40 mg/kg single dose; endpoint = Cmax; value = 5790 ng/mL
SMILES = COC1CN([C@H]2CC[C@H]([C@@]3(C)Oc4c(Cl)cc(C(=O)NCc5c(SC)cc(C)[nH]c5=O)c(C)c4O3)CC2)C1; test system = female CB17 SCID mice, HT-1376 xenograft, plasma; conditions = 75 mg/kg, day 1; endpoint = Cmax; value = 2550 ng/mL
SMILES = N=C(N)NCCC[C@@H]1NC(=O)[C@H](CO)NC(=O)[C@@H](NC(=O)[C@H](CO)NC(=O)[C@H](CO)NC(=O)[C@H](Cc2c[nH]c3ccccc23)NC(=O)CNC(=O)[C@H](CO)NC(=O)[C@@H](N)Cc2c[nH]c3ccccc23)CSSC[C@@H](C(=O)NCC(=O)O)NC(=O)[C@H](CO)NC1=O; test system = patients, plasma; conditions = intravenous, 5 mg/kg, thrice weekly, geometric mean; endpoint = Cmax; value = 2220 ng/mL

A few entries again:
SMILES = CCCCCCCOc1ccc(CC[C@](N)(CO)COP(=O)(O)O)cc1C(F)(F)F; test system = healthy human males, plasma; conditions = 0.5 mg, day 21; endpoint = Cmax; value = 7.28 ng/mL
SMILES = CC(=O)c1cccc(CN2CCCC(CCC(=O)NCc3ccccc3F)C2)c1 (centres unmarked); target or system = Trypanosoma cruzi; test = reporter mRNA translation, inhibitor, refers to: Renilla luciferase mRNA; test system = cell-free extract; conditions = concentration not given, test 2; how to read = reference: positive over negative control; endpoint = translation activity; value = 105% and 102%
